Assay results pooled from the literature.
A part holds a random share of what one study measured.

Set 1 — method: competition protein-binding microarray; molecule type: double-stranded DNA, one strand shown; matrix: in vitro; tested at: 2 µM; together with: Pho4 competitor, 0.05 µM; reading: higher = stronger binding; endpoint: fluorescence intensity
Target: Centromere-binding protein 1, full length, His-tagged (CBF1, Saccharomyces cerevisiae, UniProt P17106, residues 1-351)
Chain of UniProt P17106 (whole entry, looked up): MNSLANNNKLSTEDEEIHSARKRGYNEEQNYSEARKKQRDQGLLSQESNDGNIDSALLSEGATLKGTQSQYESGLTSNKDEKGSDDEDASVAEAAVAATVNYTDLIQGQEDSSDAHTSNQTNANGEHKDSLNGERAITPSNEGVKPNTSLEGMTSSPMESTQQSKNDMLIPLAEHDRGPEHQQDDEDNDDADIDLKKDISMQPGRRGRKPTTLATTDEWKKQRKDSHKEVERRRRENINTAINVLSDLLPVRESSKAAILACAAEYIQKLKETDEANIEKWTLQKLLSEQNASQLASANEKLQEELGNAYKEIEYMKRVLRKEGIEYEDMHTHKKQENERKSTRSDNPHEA
Notes: whole 60-bp probe, lowest competitor level
Strand = TTAAAATGGTACTGGCACGTGATGGTAGTGGCTCAAGTCTTGATTCGCTTGACGCTGCTG; result = 5330 a.u.
Strand = AGAGAGTGGGATGCGGGCGTGGGTATCTGCTGTTACGTCTTGATTCGCTTGACGCTGCTG; result = 61.3 a.u.
Strand = CTAACGAAGGTTTTTCACGTGCATTACAAGCCAAGTGTCTTGATTCGCTTGACGCTGCTG; result = 923 a.u.
Strand = TGACAGTAATCTTTTCACGTGTGGATGGACAGACTCGTCTTGATTCGCTTGACGCTGCTG; result = 622 a.u.

Set 2 — method: protein-binding microarray; molecule type: double-stranded DNA, one strand shown; matrix: in vitro; tested at: 940 nM top; notes: 60-bp whole probe; together with: salmon DNA 0.4 mg/ml; reference: random background probes; reading: higher = stronger binding; endpoint: fitted relative affinity
Target: Interferon regulatory factor 5, full length, phosphomimetic (IRF5, Homo sapiens, UniProt Q13568-2, residues 1-514, S451D/S453D/S456D/S462D)
Strand = GCCTAGCACGACGGTACCCTTATCCTGACGTGCTAGGTCTTGATTCGCTTGACGCTGCTG; result = 0.254 z-score
Strand = GCCTAGCACTTAGGTTTCCGTATCCTTTAGTGCTAGGTCTTGATTCGCTTGACGCTGCTG; result = 2.64 z-score
Strand = GCCTAGCACTTCGGTATCGACTATCGGTTAGTGCTAGTCTTGATTCGCTTGACGCTGCTG; result = 5.9 z-score
Strand = GCCTAGCACGACGGAGTGCTTTTCCTGACGTGCTAGGTCTTGATTCGCTTGACGCTGCTG; result = -0.00425 z-score

Set 3 — method: RNAcompete; molecule type: RNA; matrix: in vitro; tested at: 20 nM; notes: 7-mer, probes averaged, single round; reference: mean of 7-mers; reading: higher = stronger binding; endpoint: 7-mer Z-score
Target: PABPC1L2, full length, GST fusion (mouse, UniProt A0ABA7IW68)
Residues (chain): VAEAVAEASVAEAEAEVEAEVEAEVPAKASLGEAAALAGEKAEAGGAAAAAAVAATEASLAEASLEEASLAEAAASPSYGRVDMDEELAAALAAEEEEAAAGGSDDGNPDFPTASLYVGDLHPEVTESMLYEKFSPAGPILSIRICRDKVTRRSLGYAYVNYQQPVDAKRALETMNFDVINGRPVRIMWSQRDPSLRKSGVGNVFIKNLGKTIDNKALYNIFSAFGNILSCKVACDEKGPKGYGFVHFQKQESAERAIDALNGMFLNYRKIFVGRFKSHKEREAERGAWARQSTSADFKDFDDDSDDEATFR
Strand = AGAACAG; result = 0.109
Strand = GUCCUAU; result = -0.4
Strand = AGAGCGG; result = -0.0319
Strand = AUUCGUA; result = -0.353
Strand = CGAGCCG; result = -0.0953

Other studies, line by line
Molecule = PhoQ, residues 284 288 289 292 302 303 SCCLKL; target = PhoP, residues 12 14 15 18 19 SGWQI (Escherichia coli, UniProt P23836); test = Sort-seq, measured: YFP reporter; test system = E. coli; setting = PhoQ-PhoP variant library, together with: 10 µM Mg2+; how to read = reference: high Mg2+ state, higher = stronger signaling; endpoint = fold induction; result = 9.11
